Published values collected from several papers.
Lines come from different studies, so protocols differ.
Organism: Staphylococcus aureus

SMILES | test | test system | conditions | MIC
CC[C@H]1OC(=O)[C@H](C)[C@@H](OC(=O)c2ccc([N+](=O)[O-])cc2)[C@H](C)[C@@H](O[C@@H]2O[C@H](C)C[C@H](N(C)C)[C@H]2O)[C@](C)(OC)C[C@@H](C)C(=O)[C@H](C)[C@@H](O)[C@]1(C)O | microbial growth | BAA976 | – | > 64 µg/mL
CCCCCCCCCCCC[N+](C)(C)CCCCCCOc1cc(OCCCCCC[N+](C)(C)CCCCCCCCCCCC)cc(OCCCCCC[N+](C)(C)CCCCCCCCCCCC)c1.[Br-].[Br-].[Br-] | – | SH1000 MSSA | – | 2 µM
CCCC/C=C/C(=O)N[C@@H](Cc1cc(F)cc(F)c1)C(=O)N[C@@H]1C(=O)N2CCC[C@H]2C(=O)N(C)[C@@H](C)C(=O)N[C@@H](C)C(=O)N2CCC[C@H]2C(=O)O[C@H]1C | microbial growth, broth dilution | – | – | 0.098 µg/mL
CCCCCCCCn1cc[n+](CCCCCCCCCCOc2cc(OCCCCCCCCCC[n+]3ccn(CCCCCCCC)c3)cc(OCCCCCCCCCC[n+]3ccn(CCCCCCCC)c3)c2)c1.[Br-].[Br-].[Br-] | – | SH1000 MSSA | – | 4 µM
CC[C@H]1OC(=O)[C@H](C)[C@@H](OC(=O)Cc2cccc3ccccc23)[C@H](C)[C@@H](O[C@@H]2O[C@H](C)C[C@H](N(C)C)[C@H]2O)[C@](C)(OC)C[C@@H](C)C(=O)[C@H](C)[C@@H](O)[C@]1(C)O | – | BAA-977 | – | 8 µg/mL
CCCCCCCCn1cc[n+](CCCCCCCCOc2cc(OCCCCCCCC[n+]3ccn(CCCCCCCC)c3)cc(OCCCCCCCC[n+]3ccn(CCCCCCCC)c3)c2)c1.[Br-].[Br-].[Br-] | – | CA-MRSA USA300-0114 | – | 1 µM
c1ccc(CSc2nc3ccccc3cc2CNCCC2CCN(C3CCCC3)CC2)cc1 | microbial growth, broth dilution | – | – | 32 µg/mL
O=C(Nc1ccc(Oc2ccncc2)cc1)Nc1ccc(Cl)c(C(F)(F)F)c1 | microbial growth | NCTC8325 | – | 3 µM
CCCCCCn1cc[n+](CCCCOc2cc(OCCCC[n+]3ccn(CCCCCC)c3)cc(OCCCC[n+]3ccn(CCCCCC)c3)c2)c1.[Br-].[Br-].[Br-] | – | SH1000 MSSA | – | 2 µM
CCCCCCCC(=O)Oc1c(C)c(OC)c2c(c1C)OC(=O)[C@@H](CCCCCC)[C@]2(O)/C=C/c1ccccc1 (racemic) | microbial growth, broth dilution | ATCC25923 | – | 5000 µg/mL
CC[C@H]1OC(=O)[C@H](C)[C@@H](OC(=O)Cc2ccccc2[N+](=O)[O-])[C@H](C)[C@@H](O[C@@H]2O[C@H](C)C[C@H](N(C)C)[C@H]2O)[C@](C)(OC)C[C@@H](C)C(=O)[C@H](C)[C@@H](O)[C@]1(C)O | – | DSM 20231 MSSA | – | 1 µg/mL
CCCCCCCCCCn1cc[n+](CCCCCCCCCCOc2cc(OCCCCCCCCCC[n+]3ccn(CCCCCCCCCC)c3)cc(OCCCCCCCCCC[n+]3ccn(CCCCCCCCCC)c3)c2)c1.[Br-].[Br-].[Br-] | – | CA-MRSA USA300-0114 | – | 8 µM
COc1c(NC(=O)c2ccc(NC(=O)c3ccc(NC(=O)[C@H](Cc4c[nH]nn4)NC(=O)c4ccc(NC(=O)/C(C)=C/c5ccc(O)cc5)cc4)cc3)c(OC)c2O)ccc(C(=O)O)c1O | broth microdilution | ciprofloxacin-resistant | – | 4 µg/mL
CCC(CC)c1cc(CCN2CCCN(C(=O)OC(C)(C)C)CC2)nc(-c2cccnc2)n1 | microbial growth, broth dilution | ATCC29213 | – | > 16 µg/mL
CC[C@H]1OC(=O)[C@H](C)[C@@H](OC(=O)Cc2c(F)cccc2F)[C@H](C)[C@@H](O[C@@H]2O[C@H](C)C[C@H](N(C)C)[C@H]2O)[C@](C)(OC)C[C@@H](C)C(=O)[C@H](C)[C@@H](O)[C@]1(C)O | – | DSM 20231 MSSA | – | 1 µg/mL
CN[C@H](CC(C)C)C(=O)N[C@H]1C(=O)N[C@@H](CC(N)=O)C(=O)N[C@H]2C(=O)N[C@H]3C(=O)N[C@H](C(=O)N[C@H](C(=O)NCC(N)=O)c4cc(O)cc(O)c4-c4cc3ccc4O)[C@H](O)c3ccc(c(Cl)c3)Oc3cc2cc(c3O[C@@H]2O[C@H](CO)[C@@H](O)[C@H](O)[C@H]2O[C@H]2C[C@](C)(NCc3ccc(OCc4cn(CC(=O)N[C@H](C(=O)N[C@@H](CCN)C(=O)N[C@H]5CCNC(=O)[C@H]([C@@H](C)O)NC(=O)[C@H](CCN)NC(=O)[C@H](CCN)NC(=O)[C@H](CC(C)C)NC(=O)[C@@H](CC(C)C)NC(=O)[C@H](CCN)NC5=O)[C@@H](C)O)nn4)c(OC)c3)[C@H](O)[C@H](C)O2)Oc2ccc(cc2Cl)[C@H]1O | broth microdilution | MRSA USA300, cation-adjusted Mueller-Hinton broth | 20 to 24 h, 37 °C, 0.002% polysorbate 80 | 0.25 µg/mL
Oc1c(Br)cc(Br)c2nc3cc(Cl)ccc3nc12 | – | 147 MRSA clinical isolate | – | 0.1 µM

SMILES | test | test system | conditions | MIC
COC(=O)CNC(=O)c1ccc(NC(=O)c2[nH]c(C)c(Cl)c2Cl)c(N2CCN(C(=O)OC(C)(C)C)CC2)c1 | microbial growth, broth dilution | ATCC29213 | – | > 32 µg/mL
COc1c(NC(=O)c2ccc(NC(=O)[C@H](Cc3c[nH]nn3)NC(=O)c3ccc(NC(=O)/C(C)=C/c4ccc(O)cc4)cc3)cc2)ccc(C(=O)Nc2ccc(C(=O)O)c(O)c2)c1O | broth microdilution | ciprofloxacin-resistant | – | 2 µg/mL
Cc1c(CN(C)C(=O)/C=C/c2cnc3c(c2)CC(N)C(=O)N3)oc2ccccc12 (stereo not drawn) | microbial growth, broth dilution | ATCC29213 | – | 0.03 µg/mL
CC(=O)NC[C@H]1CN(c2ccc(N3CCN(C(=O)CN)CC3)c(F)c2)C(=O)O1 | broth dilution | Newman | – | ~50 µM
CC[C@H]1OC(=O)[C@H](C)[C@@H](OC(=O)c2ccc(N)cc2)[C@H](C)[C@@H](O[C@@H]2O[C@H](C)C[C@H](N(C)C)[C@H]2O)[C@](C)(OC)C[C@@H](C)C(=O)[C@H](C)[C@@H](O)[C@]1(C)O | – | DSM 20231 MSSA | – | > 256 µg/mL
C#CCOc1ccc(CN[C@@]2(C)C[C@H](O[C@H]3[C@H](Oc4c5cc6cc4Oc4ccc(cc4Cl)[C@@H](O)[C@@H](NC(=O)[C@@H](CC(C)C)NC)C(=O)N[C@@H](CC(N)=O)C(=O)N[C@H]6C(=O)N[C@H]4C(=O)N[C@H](C(=O)N[C@H](C(=O)NCC(N)=O)c6cc(O)cc(O)c6-c6cc4ccc6O)[C@H](O)c4ccc(c(Cl)c4)O5)O[C@H](CO)[C@@H](O)[C@@H]3O)O[C@@H](C)[C@H]2O)cc1OC | broth microdilution | MSSA ATCC 29213, cation-adjusted Mueller-Hinton broth | 20 to 24 h, 37 °C, 0.002% polysorbate 80 | 0.5 µg/mL
CCCCCCCCCCCC[N+](C)(C)CCCCCCCCOc1cc(OCCCCCCCC[N+](C)(C)CCCCCCCCCCCC)cc(OCCCCCCCC[N+](C)(C)CCCCCCCCCCCC)c1.[Br-].[Br-].[Br-] | – | HA-MRSA ATCC 33591 | – | 32 µM
CCOc1c(NC(=O)c2ccc(NC(=O)c3ccc(NC(=O)[C@H](Cc4c[nH]nn4)NC(=O)c4ccc(NC(=O)/C(C)=C/c5ccc(O)cc5)cc4)cc3)c(OCC)c2O)ccc(C(=O)O)c1O | broth microdilution | ciprofloxacin-resistant | – | 0.063 µg/mL
CCCCCCCCn1cc[n+](CCCCCCOc2cc(OCCCCCC[n+]3ccn(CCCCCCCC)c3)cc(OCCCCCC[n+]3ccn(CCCCCCCC)c3)c2)c1.[Br-].[Br-].[Br-] | – | HA-MRSA ATCC 33591 | – | 1 µM
C/C(=C\c1ccc(O)cc1)C(=O)Nc1ccc(C(=O)N[C@@H](Cc2c[nH]nn2)C(=O)Nc2ccc(C(=O)Nc3ccc(C(=O)Nc4ccc(C(=O)O)cc4)c(O)c3)cc2)cc1 | broth microdilution | ciprofloxacin-resistant | – | 32 µg/mL
COc1c(C)c(OC(=O)c2ccccc2)c(C)c(OC(=O)c2ccccc2)c1C(=O)/C=C/c1ccccc1 | microbial growth, broth dilution | ATCC25923 | – | 2500 µg/mL
CC[C@H]1OC(=O)[C@H](C)[C@@H](OC(=O)Cc2ccccc2Cl)[C@H](C)[C@@H](O[C@@H]2O[C@H](C)C[C@H](N(C)C)[C@H]2O)[C@](C)(OC)C[C@@H](C)C(=O)[C@H](C)[C@@H](O)[C@]1(C)O | – | ATCC 43300 MRSA | – | > 64 µg/mL
C=C1CN(C(=N)N)CC2Nc3c(F)cc(Br)cc3C12CCNS(=O)(=O)c1ccc(Cl)cc1.O=C(O)C(F)(F)F (stereo not drawn) | – | NRS-100, community-acquired MRSA | – | 2 µg/mL
CC1C=CC=CC(C)C2C=CC3CC(C)(O)C(Cl)C(C)C3C2C(=O)C(Cl)(Cl)C(=O)C(C)C(=O)O1 (stereo not drawn) | – | MSSA clinical isolate | resistant, PEN, ERY, CLI, TET, SXT | 0.1 µg/mL
CCCCCCCC[N+](C)(C)CCCCCCOc1cc(OCCCCCC[N+](C)(C)CCCCCCCC)cc(OCCCCCC[N+](C)(C)CCCCCCCC)c1.[Br-].[Br-].[Br-] | – | HA-MRSA ATCC 33591 | – | 1 µM
CC[C@H]1OC(=O)[C@H](C)[C@@H](OC(=O)Cc2ccc(OC(F)(F)F)cc2)[C@H](C)[C@@H](O[C@@H]2O[C@H](C)C[C@H](N(C)C)[C@H]2O)[C@](C)(OC)C[C@@H](C)C(=O)[C@H](C)[C@@H](O)[C@]1(C)O | microbial growth | BAA976 | – | 16 µg/mL
